Measurements of several laboratories.
Each line is one published result; not all experiments were run side by side. Several values in a cell are separate wells, animals, samples, runs or records. ± gives the spread as reported.
FPR1: fMet-Leu-Phe receptor (FPR1, Homo sapiens, UniProt P21462)
GRM4: Metabotropic glutamate receptor 4 (GRM4, Homo sapiens, UniProt Q14833)
MAPK8: Mitogen-activated protein kinase 8 (MAPK8, Homo sapiens, UniProt P45983)
E3 ubiquitin-protein ligase NEDD4: E3 ubiquitin-protein ligase NEDD4 (Homo sapiens, UniProt P46934)
GLP1R: Glucagon-like peptide 1 receptor (GLP1R, Homo sapiens, UniProt P43220)
Grm2: Metabotropic glutamate receptor 2 (Grm2, Rattus norvegicus, UniProt P31421)
MIPEP: Mitochondrial intermediate peptidase (MIPEP, Homo sapiens, UniProt Q99797)
RPA1 N-terminal domain: Replication protein A 70 kDa DNA-binding subunit, N-terminal domain (RPA1, Homo sapiens, UniProt P27694)

By UniProt entry, the sequences of proteins in these tests, tags left out. Residues count along the entry.
UniProt P21462, whole entry: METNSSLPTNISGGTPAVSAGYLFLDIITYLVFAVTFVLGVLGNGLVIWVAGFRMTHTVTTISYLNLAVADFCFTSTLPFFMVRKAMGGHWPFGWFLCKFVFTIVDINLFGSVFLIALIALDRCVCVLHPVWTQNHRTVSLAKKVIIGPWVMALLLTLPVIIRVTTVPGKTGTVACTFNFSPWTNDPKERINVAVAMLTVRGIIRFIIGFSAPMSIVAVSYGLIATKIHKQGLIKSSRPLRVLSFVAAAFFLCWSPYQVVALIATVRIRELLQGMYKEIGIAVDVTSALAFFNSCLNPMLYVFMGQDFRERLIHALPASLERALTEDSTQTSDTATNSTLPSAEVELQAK
UniProt Q14833, 33-912 limits assumed: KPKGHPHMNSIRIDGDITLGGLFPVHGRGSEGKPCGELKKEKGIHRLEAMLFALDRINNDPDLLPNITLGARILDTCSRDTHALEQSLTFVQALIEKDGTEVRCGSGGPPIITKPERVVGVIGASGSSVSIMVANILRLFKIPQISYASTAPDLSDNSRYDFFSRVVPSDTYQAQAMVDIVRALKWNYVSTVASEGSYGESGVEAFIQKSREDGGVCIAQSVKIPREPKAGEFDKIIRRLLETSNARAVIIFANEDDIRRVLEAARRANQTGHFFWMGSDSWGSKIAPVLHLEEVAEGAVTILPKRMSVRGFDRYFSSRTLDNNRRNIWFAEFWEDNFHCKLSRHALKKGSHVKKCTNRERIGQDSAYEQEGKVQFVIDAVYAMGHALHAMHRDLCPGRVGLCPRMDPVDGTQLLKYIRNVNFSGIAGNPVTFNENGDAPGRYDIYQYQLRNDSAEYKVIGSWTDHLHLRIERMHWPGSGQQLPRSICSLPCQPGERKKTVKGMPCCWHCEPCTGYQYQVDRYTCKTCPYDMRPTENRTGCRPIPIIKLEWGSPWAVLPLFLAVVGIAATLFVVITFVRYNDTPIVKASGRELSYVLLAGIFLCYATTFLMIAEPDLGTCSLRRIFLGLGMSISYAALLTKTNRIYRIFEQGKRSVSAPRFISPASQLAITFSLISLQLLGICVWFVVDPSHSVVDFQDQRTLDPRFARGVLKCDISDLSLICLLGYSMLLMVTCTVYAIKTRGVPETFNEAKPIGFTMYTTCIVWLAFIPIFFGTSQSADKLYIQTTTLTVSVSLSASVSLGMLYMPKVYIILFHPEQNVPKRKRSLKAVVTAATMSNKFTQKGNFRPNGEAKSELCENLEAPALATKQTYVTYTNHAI
UniProt P45983, 1-384 isoform 3: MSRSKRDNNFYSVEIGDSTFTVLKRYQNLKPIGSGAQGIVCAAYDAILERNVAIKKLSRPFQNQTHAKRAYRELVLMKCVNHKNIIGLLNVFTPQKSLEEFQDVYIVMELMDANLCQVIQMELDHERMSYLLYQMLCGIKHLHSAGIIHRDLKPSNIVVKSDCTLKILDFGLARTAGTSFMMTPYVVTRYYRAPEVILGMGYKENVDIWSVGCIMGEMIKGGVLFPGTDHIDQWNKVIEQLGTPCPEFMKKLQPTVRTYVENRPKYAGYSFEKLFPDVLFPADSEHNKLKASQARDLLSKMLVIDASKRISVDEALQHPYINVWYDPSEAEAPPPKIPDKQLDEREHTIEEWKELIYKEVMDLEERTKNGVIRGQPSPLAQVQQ
UniProt P46934, whole entry, looked up: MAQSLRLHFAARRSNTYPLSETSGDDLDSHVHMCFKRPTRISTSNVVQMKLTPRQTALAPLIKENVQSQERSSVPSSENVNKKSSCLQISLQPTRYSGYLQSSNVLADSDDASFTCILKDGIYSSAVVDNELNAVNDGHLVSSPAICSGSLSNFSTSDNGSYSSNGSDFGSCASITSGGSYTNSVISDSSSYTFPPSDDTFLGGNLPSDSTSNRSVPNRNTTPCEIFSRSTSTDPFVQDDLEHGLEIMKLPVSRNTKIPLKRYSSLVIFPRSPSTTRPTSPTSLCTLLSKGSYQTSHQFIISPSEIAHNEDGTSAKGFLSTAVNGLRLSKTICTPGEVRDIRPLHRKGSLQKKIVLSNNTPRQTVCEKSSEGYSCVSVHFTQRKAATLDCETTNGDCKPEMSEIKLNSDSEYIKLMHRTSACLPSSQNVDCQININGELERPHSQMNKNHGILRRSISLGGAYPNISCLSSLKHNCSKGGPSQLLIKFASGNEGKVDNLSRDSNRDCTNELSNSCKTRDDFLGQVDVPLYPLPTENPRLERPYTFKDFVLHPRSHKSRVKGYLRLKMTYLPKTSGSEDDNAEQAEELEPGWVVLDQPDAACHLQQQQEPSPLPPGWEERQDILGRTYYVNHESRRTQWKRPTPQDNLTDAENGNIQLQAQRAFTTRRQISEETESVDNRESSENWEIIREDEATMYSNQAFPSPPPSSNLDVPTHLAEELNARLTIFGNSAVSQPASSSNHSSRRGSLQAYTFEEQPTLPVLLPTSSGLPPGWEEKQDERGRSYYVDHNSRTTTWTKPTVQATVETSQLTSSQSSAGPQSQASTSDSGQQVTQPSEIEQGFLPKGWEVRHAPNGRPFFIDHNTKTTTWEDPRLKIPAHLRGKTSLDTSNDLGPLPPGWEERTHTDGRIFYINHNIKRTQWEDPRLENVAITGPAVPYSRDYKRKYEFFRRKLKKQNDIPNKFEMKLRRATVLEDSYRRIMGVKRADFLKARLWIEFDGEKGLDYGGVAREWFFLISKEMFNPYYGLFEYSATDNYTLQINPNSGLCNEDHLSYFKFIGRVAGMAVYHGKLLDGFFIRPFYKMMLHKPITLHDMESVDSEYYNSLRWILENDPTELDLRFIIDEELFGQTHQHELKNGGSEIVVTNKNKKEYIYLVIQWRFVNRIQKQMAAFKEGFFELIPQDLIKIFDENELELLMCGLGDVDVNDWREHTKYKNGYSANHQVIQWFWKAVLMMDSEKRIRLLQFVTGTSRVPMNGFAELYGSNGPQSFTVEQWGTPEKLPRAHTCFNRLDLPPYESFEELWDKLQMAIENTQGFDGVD
UniProt Q8IXJ6, whole entry: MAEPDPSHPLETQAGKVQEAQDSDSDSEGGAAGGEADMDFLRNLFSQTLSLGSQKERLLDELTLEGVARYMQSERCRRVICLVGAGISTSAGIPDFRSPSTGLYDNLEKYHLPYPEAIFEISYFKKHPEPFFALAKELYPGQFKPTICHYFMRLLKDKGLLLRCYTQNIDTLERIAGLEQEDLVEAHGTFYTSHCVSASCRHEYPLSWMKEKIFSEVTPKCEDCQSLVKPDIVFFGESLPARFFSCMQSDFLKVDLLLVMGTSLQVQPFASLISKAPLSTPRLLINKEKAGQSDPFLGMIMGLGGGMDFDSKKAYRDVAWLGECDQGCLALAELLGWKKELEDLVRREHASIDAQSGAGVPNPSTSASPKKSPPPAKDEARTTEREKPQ
UniProt P42260, 32-908 limits assumed: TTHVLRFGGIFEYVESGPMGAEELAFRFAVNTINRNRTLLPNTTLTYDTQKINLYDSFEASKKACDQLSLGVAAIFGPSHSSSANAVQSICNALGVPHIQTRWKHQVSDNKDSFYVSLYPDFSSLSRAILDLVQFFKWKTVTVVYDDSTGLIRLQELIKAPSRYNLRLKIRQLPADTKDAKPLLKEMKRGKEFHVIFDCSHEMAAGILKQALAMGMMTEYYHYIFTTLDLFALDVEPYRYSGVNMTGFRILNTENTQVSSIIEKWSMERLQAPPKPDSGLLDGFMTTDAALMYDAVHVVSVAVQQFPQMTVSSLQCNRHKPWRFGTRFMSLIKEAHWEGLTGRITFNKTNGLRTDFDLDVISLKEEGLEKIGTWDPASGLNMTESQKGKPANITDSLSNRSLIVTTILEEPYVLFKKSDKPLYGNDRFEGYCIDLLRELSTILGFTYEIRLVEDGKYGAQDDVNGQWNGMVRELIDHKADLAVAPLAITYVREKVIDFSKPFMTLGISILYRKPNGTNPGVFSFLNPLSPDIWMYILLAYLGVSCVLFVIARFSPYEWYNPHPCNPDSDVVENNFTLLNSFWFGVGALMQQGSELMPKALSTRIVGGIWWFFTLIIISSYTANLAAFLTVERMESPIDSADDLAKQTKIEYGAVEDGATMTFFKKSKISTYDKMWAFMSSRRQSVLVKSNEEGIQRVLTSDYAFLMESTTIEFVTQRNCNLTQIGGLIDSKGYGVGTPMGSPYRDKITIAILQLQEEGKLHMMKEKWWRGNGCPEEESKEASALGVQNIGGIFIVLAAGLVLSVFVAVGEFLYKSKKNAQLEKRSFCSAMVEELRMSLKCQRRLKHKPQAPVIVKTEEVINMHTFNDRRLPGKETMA
UniProt P08912, whole entry: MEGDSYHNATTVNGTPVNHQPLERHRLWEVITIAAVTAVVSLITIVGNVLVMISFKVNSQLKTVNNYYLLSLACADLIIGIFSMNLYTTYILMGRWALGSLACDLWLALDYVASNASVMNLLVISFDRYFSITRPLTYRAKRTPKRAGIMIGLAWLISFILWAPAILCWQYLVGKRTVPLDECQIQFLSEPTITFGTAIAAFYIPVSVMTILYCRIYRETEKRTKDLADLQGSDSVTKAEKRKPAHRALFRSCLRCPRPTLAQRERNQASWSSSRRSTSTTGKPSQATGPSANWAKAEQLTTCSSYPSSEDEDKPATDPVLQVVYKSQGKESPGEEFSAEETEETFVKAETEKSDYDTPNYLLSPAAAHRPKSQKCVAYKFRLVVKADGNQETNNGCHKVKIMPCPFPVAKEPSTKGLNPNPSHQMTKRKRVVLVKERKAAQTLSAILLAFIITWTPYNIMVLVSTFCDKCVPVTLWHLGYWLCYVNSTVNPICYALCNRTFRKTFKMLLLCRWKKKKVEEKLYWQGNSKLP
UniProt P07900, 1-236 S52A limits assumed: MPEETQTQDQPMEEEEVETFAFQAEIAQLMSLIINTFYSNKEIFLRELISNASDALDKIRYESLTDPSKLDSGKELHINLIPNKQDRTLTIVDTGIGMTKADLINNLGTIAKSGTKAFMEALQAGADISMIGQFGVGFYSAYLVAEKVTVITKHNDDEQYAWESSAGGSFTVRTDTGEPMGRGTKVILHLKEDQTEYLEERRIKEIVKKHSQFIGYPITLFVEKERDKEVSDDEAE
UniProt P22455, 467-755 V550E limits assumed: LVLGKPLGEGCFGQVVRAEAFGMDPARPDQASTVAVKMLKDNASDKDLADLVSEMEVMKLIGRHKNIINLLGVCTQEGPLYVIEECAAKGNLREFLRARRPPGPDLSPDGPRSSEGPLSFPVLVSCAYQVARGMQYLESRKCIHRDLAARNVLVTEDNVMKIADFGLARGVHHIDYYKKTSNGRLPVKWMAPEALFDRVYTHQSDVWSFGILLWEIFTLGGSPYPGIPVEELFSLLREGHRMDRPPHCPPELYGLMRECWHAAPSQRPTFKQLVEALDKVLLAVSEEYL
UniProt Q92843, whole entry: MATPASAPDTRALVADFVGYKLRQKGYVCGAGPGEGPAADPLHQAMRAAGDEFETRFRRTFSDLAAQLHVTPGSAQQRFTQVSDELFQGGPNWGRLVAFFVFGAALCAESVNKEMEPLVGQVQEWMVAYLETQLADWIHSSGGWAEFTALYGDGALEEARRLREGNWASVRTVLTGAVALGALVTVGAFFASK
UniProt P19784, whole entry: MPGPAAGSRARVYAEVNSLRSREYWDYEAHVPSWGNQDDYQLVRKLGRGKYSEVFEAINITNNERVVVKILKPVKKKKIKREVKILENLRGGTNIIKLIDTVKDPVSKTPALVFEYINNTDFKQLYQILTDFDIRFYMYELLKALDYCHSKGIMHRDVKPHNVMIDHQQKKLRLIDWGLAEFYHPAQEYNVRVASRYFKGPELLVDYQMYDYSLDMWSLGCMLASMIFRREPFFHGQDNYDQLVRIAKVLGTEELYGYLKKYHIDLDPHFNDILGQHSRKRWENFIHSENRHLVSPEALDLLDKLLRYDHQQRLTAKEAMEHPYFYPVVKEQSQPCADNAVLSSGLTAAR
UniProt Q9GZT9, whole entry: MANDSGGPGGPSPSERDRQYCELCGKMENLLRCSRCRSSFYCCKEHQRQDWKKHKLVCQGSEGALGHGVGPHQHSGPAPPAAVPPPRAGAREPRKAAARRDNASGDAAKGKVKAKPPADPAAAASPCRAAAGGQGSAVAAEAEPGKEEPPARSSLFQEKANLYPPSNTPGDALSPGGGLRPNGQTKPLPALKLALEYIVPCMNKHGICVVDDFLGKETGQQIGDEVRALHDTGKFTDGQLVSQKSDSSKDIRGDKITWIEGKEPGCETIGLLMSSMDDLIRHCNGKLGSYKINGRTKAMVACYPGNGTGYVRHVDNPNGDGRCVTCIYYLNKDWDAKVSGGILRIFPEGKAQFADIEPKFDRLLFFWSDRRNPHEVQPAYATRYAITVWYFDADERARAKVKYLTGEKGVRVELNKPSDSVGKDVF
UniProt Q3UFF7, whole entry: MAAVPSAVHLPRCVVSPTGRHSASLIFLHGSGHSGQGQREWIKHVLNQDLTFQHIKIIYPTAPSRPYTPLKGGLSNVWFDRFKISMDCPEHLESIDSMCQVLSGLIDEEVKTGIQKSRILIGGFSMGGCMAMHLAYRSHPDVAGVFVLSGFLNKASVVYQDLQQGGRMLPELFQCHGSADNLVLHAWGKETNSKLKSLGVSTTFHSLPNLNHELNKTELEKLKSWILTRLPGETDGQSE
UniProt P05067, 672-713 limits assumed: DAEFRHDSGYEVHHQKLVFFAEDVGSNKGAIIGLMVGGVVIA

Structure (SMILES) | target | test | test system | conditions | how to read | endpoint | value
COc1ccc2nc(SCC(=O)Nc3ccc(S(N)(=O)=O)cc3)[nH]c2c1 | FPR1 | calcium mobilization, agonist | transfected HL-60 cells | concentration not given | – | activity class | active
O=C(Nc1cccnc1)C12CC1/C(=N\O)c1ccccc1O2 (centres unmarked) | GRM4 | positive allosteric modulator, calcium mobilization | CHO expressing Gqi5 | concentration not given, with: glutamate EC20 | baseline: glutamate 1 mM | response | 61.8 ± 2.3%
Cc1cc(NC(=O)c2cccc(NC(=O)C3=CC(C)(C)CCC3=O)c2)ccc1Nc1nccc(-c2cccnc2)n1 | MAPK8 | kinase activity, inhibitor | – | 44.44 µM, unit not given, with: 10 mM GSH | baseline: DMSO | remaining activity | 0.112
O=C(OC(C(F)(F)F)C(F)(F)F)N1CCc2ccc(Br)cc2C1 | Fatty-acid amide hydrolase 1 (FAAH, Homo sapiens, UniProt O00519) | enzyme activity, inhibitor, fluorescence AAMCA substrate | – | 1 µM | – | activity | inactive
CCOC(=O)/C=C/CNCCCN1c2ccccc2CCc2ccc(Br)cc21 | E3 ubiquitin-protein ligase NEDD4 | inhibitor, Ub-TR-FRET | – | 100 µM, 1 h preincubation, HECT domain, with: ATP 2 mM | higher = more ubiquitination | ubiquitination TR-FRET signal AUC | 37600 a.u. and 34100 a.u. and 31300 a.u.
CC(=O)N[C@@H](CCC(N)=O)C(=O)N[C@H](C(=O)N[C@@H](C)C(=O)N[C@@H](CCCNC(=N)N)C(=O)N[C@@H](CCCCNC(=O)CCc1ccc(N=Nc2ccc(N(C)C)cc2)cc1)C(=O)N[C@@H](CO)C(=O)N[C@H](C(=O)NCC(=O)NCC(=O)NCCCNC(=S)Nc1ccc2c(c1)C(=O)OC21c2ccc(O)cc2Oc2cc(O)ccc21)[C@@H](C)O)[C@@H](C)O | NAD-dependent protein deacetylase sirtuin-2 (SIRT2, Homo sapiens, UniProt Q8IXJ6) | substrate, fluorescence kinetics | – | 37 °C, 24 nM enzyme, with: 500 µM NAD+ | – | kcat | 0.0024 ± 8e-05 s⁻¹
CCCCCN1C(=O)C(O)=C(C(=O)c2ccccc2)C1c1cc(OC)ccc1OC (centres unmarked) | FPR1 | fMLF-induced calcium mobilization, antagonist | HL-60 expressing FPR1 | concentration not given, inactive if none at 50 µM | – | antagonist activity | active
CC(C)(Cn1cc(-c2ccc(CO)cc2)nn1)c1c[nH]c2ccccc12 | GLP1R | cAMP accumulation, positive allosteric modulator, HTRF | – | 0.6 µM, purified compound, with: GLP-1(9-36) at EC20 | baseline: BETP | Emax | 102 ± 4%
COC(=O)[C@@]1(C)C=C(C(=O)Nc2cccc(C(=O)NC34CC(Nc5nccc(-c6cccnc6)n5)(C3)C4)c2)C(=O)CC1 | Mitogen-activated protein kinase 9 (MAPK9, Homo sapiens, UniProt P45984) | enzyme activity, inhibitor | – | 4.938 µM | – | remaining activity | 0.0639 fraction of control
O=C(O)c1cc(C(=O)N2CCC[C@H]2C(=O)O)cc([C@H]2CCN[C@@H]2C(=O)O)c1 | Glutamate receptor ionotropic, kainate 2 (Grik2, Rattus norvegicus, UniProt P42260) | radioligand binding | Sf9 membranes | 10 µM, homomeric receptor, with: [3H]kainate | – | specific binding | 86 ± 1%
O=C(N[C@@H]1CCc2ccccc21)C1CCN(S(=O)(=O)c2ccc3[nH]ncc3c2)CC1 | Muscarinic acetylcholine receptor M5 (CHRM5, Homo sapiens, UniProt P08912) | positive allosteric modulator, calcium mobilization | CHO cells expressing human M5 | with: acetylcholine EC20 | – | potentiation | inactive
NC(=O)c1cn(-c2ccc(F)cc2)c2ccc(CCc3ccncc3)cc2c1=O | Grm2 | calcium mobilization, negative allosteric modulator | – | 30 µM, with: glutamate 100 µM | baseline: glutamate maximum | response | 1.88 ± 0.38%
C/C=C/Cn1c(Cc2cc(OC)c(OC)c(OC)c2)nc2c(N)ncnc21 | Heat shock protein HSP 90-alpha, N-terminal domain (HSP90AA1, Homo sapiens, UniProt P07900, S52A) | isothermal titration calorimetry | – | 298 K, N-terminal domain S52A | – | TΔS | -4.16 ± 0.19 kcal/mol
O=C1CCC(N2Cc3cc(-c4nc5ccccn5c4NC45CC6CC(CC(C6)C4)C5)ccc3C2=O)C(=O)N1 (centres unmarked) | WEE1/CRBN (Homo sapiens, UniProt P30291+Q96SW2) | degrader, HiBiT | Jurkat | 5 h | – | Dmax | > 98%
COc1ccc(NC(=O)CN2CCCN(S(=O)(=O)c3ccc(C)c(C)c3)CC2)c(OC)c1 | GRM4 | calcium mobilization, positive allosteric modulator | CHO cells with Gqi5 | with: glutamate | baseline: PHCCC maximal response | maximal response | 42.4 ± 5%
Cc1ncc(CN(C)c2ccc3c(c2)c(=O)c(C(N)=O)cn3-c2ccc(F)cc2)cn1 | Grm2 | calcium mobilization, negative allosteric modulator | – | 30 µM, with: glutamate 100 µM | baseline: glutamate maximum | response | 1.86 ± 0.26%
CCOC(=O)/C=C/CNCCCCN1c2ccccc2CCc2ccc(Cl)cc21 | E3 ubiquitin-protein ligase NEDD4 | inhibitor, Ub-TR-FRET | – | 100 µM, 1 h preincubation, HECT domain, with: ATP 2 mM | higher = more ubiquitination | ubiquitination TR-FRET signal AUC | 8150 a.u. and 9730 a.u. and 10100 a.u. and 12600 a.u. and 9320 a.u. and 11000 a.u.
CC(=O)N1CCN(c2ccc(Nc3ncc4c(n3)N(C)C(=O)N(c3cc(NC(=O)c5ccc(CN6CCC(N(C)C)C6)c(C(F)(F)F)c5)ccc3C)C4)cn2)CC1 (centres unmarked) | FGFR4/Transcription factor ETV6 (Homo sapiens, UniProt P22455+P41212, V550E) | cell proliferation, inhibitor | Ba/F3 TEL-FGFR4 V550E | – | baseline: compound over BLU9931, higher = more potent | potency ratio | 80 fold

Structure (SMILES) | target | test | test system | conditions | how to read | endpoint | value
CC(C)C[C@H](NC(=O)[C@@H]1CCCN1C(=O)[C@H](CCC(N)=O)NC(=O)c1ccccc1N)C(=O)N[C@@H](C)C(=O)N[C@@H](CC(N)=O)C(=O)N[C@@H](CCCCN)C(=O)N[C@H](C(=O)N[C@@H](CCC(N)=O)C(=O)NCCNc1ccc([N+](=O)[O-])cc1[N+](=O)[O-])C(C)C | MIPEP | substrate, FRET peptide hydrolysis | – | – | – | kcat | 0.057 s⁻¹
Cc1cccc(C2NC(=O)c3c(Cl)cccc3N2)c1 (racemic) | Protein polybromo-1, BD2 (PBRM1, Homo sapiens, UniProt Q86U86, Y262F) | ITC | – | – | baseline: wild-type BD2 over Y262F mutant | fold loss of affinity | 8 fold
Cc1ncsc1-c1ccc([C@H](C)NC(=O)[C@@H]2C[C@@H](O)CN2C(=O)[C@@H](NC(=O)CCCCCCC(=O)N2CCN(C[C@]3(C)CCC(c4ccc(Cl)cc4)=C(CN4CCN(c5ccc(C(=O)NS(=O)(=O)c6ccc(N[C@H](CCN7CCOCC7)CSc7ccccc7)c(S(=O)(=O)C(F)(F)F)c6)cc5)CC4)C3)CC2)C(C)(C)C)cc1 | Bcl-2-like protein 2 (BCL2L2, Homo sapiens, UniProt Q92843) | western blot | WI-38 senescent and non-senescent | up to 100 nM | – | protein level | no effect
Cc1ccc(C(=O)Nc2ccccc2C(=O)O)cc1S(=O)(=O)N[C@H]1CC[C@H](C)CC1 (relative stereo) | RPA1 N-terminal domain | binding, fluorescence polarisation competition | – | with: FITC-ATRIP probe | – | ligand efficiency | 0.2
CC(C)(Cn1cc(-c2ccc(S(C)(=O)=O)cc2)nn1)c1c[nH]c2ccccc12 | GLP1R | cAMP accumulation, positive allosteric modulator, HTRF | – | 0.6 µM, purified compound, with: GLP-1(9-36) at EC20 | baseline: BETP | Emax | 112 ± 6%
CCOC(=O)/C=C/CNCCCN1c2ccccc2CCc2ccccc21 | E3 ubiquitin-protein ligase NEDD4 | inhibitor, Ub-TR-FRET | – | 0.04572 µM, 1 h preincubation, HECT domain, with: ATP 2 mM | higher = more ubiquitination | ubiquitination TR-FRET signal AUC | 132000 a.u. and 130000 a.u. and 131000 a.u.
CCn1c(-c2cc(NC(=O)c3cnccn3)n[nH]2)cc2ccccc21 | Casein kinase II subunit alpha' (CSNK2A2, Homo sapiens, UniProt P19784) | enzyme activity, inhibitor | – | – | – | maximal inhibition | ~65%
Cc1ccccc1Nc1c(C(=O)O)ccnc1C(=O)O | Egl nine homolog 1 (EGLN1, Homo sapiens, UniProt Q9GZT9) | inhibitor, HTRF | – | 400 µM | – | remaining activity | 100%
COc1ccc(NC(=O)CN2CCCN(S(=O)(=O)c3ccc(Cl)c(Cl)c3)CC2)c(OC)c1 | GRM4 | calcium mobilization, positive allosteric modulator | CHO cells with Gqi5 | with: glutamate | baseline: PHCCC maximal response | maximal response | 24.3 ± 1.5%
Nc1ccc([N+](=O)[O-])cc1-c1nc2ccccc2[nH]c1=O | Inverted formin-2, FH1-FH2 domains (Inf2, Mus musculus, UniProt Q0GNC1) | actin assembly, pyrene-actin polymerization | – | concentration not given | – | maximal inhibition | ≤ 75%
Nc1nc(SCc2ccc(Cl)cc2)nn1S(=O)(=O)c1ccc2c(c1)CCC2 | Lysophospholipase-like protein 1 (LYPLAL1, Homo sapiens, UniProt Q5VWZ2) | activator, gel-based ABPP | purified protein | – | baseline: DMSO | FP-rhodamine labelling | 2.2 fold
Cc1ccc(C(=O)Nc2cccc(C)c2C(=O)O)cc1S(=O)(=O)Nc1ccc(Br)cc1 | RPA1 N-terminal domain | binding, fluorescence polarisation competition | – | with: FITC-ATRIP probe | – | ligand efficiency | 0.19
CC(=O)c1cccc(S(=O)(=O)n2nc(CCCc3ccc(Cl)cc3)nc2N)c1 | Lysophospholipase-like protein 1 (Mus musculus, UniProt Q3UFF7) | activator, gel-based ABPP FP-rhodamine | – | – | baseline: DMSO | probe labelling | 1 fold
OCC1C(O)C(O)C(O)CN1CCCC(F)(F)COCc1ccc(-c2ccccc2)cc1 (centres unmarked) | Beta-glucosidase (GBA2, Homo sapiens, UniProt Q9HCG7) | – | – | – | baseline: GCS IC50 over GBA2 IC50 | selectivity ratio | 8
CC(C)C[C@H](NC(=O)[C@@H]1CCCN1C(=O)[C@H](CCC(N)=O)NC(=O)c1ccccc1N)C(=O)N[C@@H](CCC(N)=O)C(=O)N[C@@H](C)C(=O)N[C@@H](CCCCN)C(=O)N[C@H](C(=O)N[C@@H](CCC(N)=O)C(=O)NCCNc1ccc([N+](=O)[O-])cc1[N+](=O)[O-])C(C)C | MIPEP | substrate, FRET peptide hydrolysis | – | – | – | kcat/Km | 29000 M⁻¹ s⁻¹
Cc1cc(NC(=O)c2cccc(NC(=O)C3=CC(C)(C)CC3=O)c2)ccc1Nc1nccc(-c2cccnc2)n1 | MAPK8 | kinase activity, inhibitor | – | 0.02032 µM, unit not given, with: 10 mM GSH | baseline: DMSO | remaining activity | 0.892
CC(C)OC(=O)CCC(C(=O)/C=C/c1ccc(O)c(OC(F)(F)F)c1)C(=O)/C=C/c1ccc(O)c(OC(F)(F)F)c1 | Amyloid-beta precursor protein (APP, Homo sapiens, UniProt P05067) | SDS-PAGE western blot, item: Aβ1-42 species 75-200 kDa | – | 30 µM, 24 h, 37 °C, with: Aβ 10 µM | baseline: DMSO control | Aβ band density | 2000 ± 450%

Repeated from above:
Structure (SMILES) | target | test | test system | conditions | how to read | endpoint | value
NC(=O)c1cn(-c2ccc(F)cc2)c2ccc(CCc3ccncc3)cc2c1=O | Grm2 | calcium mobilization, negative allosteric modulator | – | 30 µM, with: glutamate 100 µM | baseline: glutamate maximum | response | 1.88 ± 0.38%
C/C=C/Cn1c(Cc2cc(OC)c(OC)c(OC)c2)nc2c(N)ncnc21 | Heat shock protein HSP 90-alpha, N-terminal domain (HSP90AA1, Homo sapiens, UniProt P07900, S52A) | isothermal titration calorimetry | – | 298 K, N-terminal domain S52A | – | TΔS | -4.16 ± 0.19 kcal/mol
O=C1CCC(N2Cc3cc(-c4nc5ccccn5c4NC45CC6CC(CC(C6)C4)C5)ccc3C2=O)C(=O)N1 (centres unmarked) | WEE1/CRBN (Homo sapiens, UniProt P30291+Q96SW2) | degrader, HiBiT | Jurkat | 5 h | – | Dmax | > 98%
COc1ccc(NC(=O)CN2CCCN(S(=O)(=O)c3ccc(C)c(C)c3)CC2)c(OC)c1 | GRM4 | calcium mobilization, positive allosteric modulator | CHO cells with Gqi5 | with: glutamate | baseline: PHCCC maximal response | maximal response | 42.4 ± 5%
Cc1ncc(CN(C)c2ccc3c(c2)c(=O)c(C(N)=O)cn3-c2ccc(F)cc2)cn1 | Grm2 | calcium mobilization, negative allosteric modulator | – | 30 µM, with: glutamate 100 µM | baseline: glutamate maximum | response | 1.86 ± 0.26%
CCOC(=O)/C=C/CNCCCCN1c2ccccc2CCc2ccc(Cl)cc21 | E3 ubiquitin-protein ligase NEDD4 | inhibitor, Ub-TR-FRET | – | 100 µM, 1 h preincubation, HECT domain, with: ATP 2 mM | higher = more ubiquitination | ubiquitination TR-FRET signal AUC | 8150 a.u. and 9730 a.u. and 10100 a.u. and 12600 a.u. and 9320 a.u. and 11000 a.u.
